{"data": "Experimental data of several laboratories", "note": "Every numbered part comes from another study and shows a few of its results, in no order. Changes are numbered by the printed parent chain."}
{"data": "Sample 1", "target": "CCNA2, cyclin fold, Cln2 fusion (human)", "technique": "yeast growth competition, sequencing", "matrix": "yeast", "notes": "strong parent motif", "baseline": "not given", "direction": "higher = stronger binding", "starting sequence": "DTL docking peptide (human); PSSMRKICTYFHR"}
{"Substitution": "PSSMRKICTYFHA [R13A]", "normalised enrichment score": 1.74}
{"Substitution": "PASMRKICTYFHR [S2A]", "normalised enrichment score": 1.22}
{"Substitution": "PSAMRKICTYFHR [S3A]", "normalised enrichment score": 1.23}
{"Substitution": "PSSMRKICTYAHR [F11A]", "normalised enrichment score": 0.743}
{"Substitution": "PSSMAKICTYFHR [R5A]", "normalised enrichment score": 1.4}
{"Substitution": "PSSMRKICTYFAR [H12A]", "normalised enrichment score": 1.29}
{"data": "Sample 2", "target": "Sal-like protein 4, full length isoform A (SALL4, Homo sapiens, UniProt Q9UJQ4, residues 1-1053)", "technique": "universal PBM", "molecule type": "double-stranded DNA, one strand shown", "matrix": "in vitro", "tested at": "600 nM", "notes": "8-mer, flanks averaged, mean of replicates", "direction": "higher = stronger binding", "sequence of UniProt Q9UJQ4 (whole entry, looked up)": "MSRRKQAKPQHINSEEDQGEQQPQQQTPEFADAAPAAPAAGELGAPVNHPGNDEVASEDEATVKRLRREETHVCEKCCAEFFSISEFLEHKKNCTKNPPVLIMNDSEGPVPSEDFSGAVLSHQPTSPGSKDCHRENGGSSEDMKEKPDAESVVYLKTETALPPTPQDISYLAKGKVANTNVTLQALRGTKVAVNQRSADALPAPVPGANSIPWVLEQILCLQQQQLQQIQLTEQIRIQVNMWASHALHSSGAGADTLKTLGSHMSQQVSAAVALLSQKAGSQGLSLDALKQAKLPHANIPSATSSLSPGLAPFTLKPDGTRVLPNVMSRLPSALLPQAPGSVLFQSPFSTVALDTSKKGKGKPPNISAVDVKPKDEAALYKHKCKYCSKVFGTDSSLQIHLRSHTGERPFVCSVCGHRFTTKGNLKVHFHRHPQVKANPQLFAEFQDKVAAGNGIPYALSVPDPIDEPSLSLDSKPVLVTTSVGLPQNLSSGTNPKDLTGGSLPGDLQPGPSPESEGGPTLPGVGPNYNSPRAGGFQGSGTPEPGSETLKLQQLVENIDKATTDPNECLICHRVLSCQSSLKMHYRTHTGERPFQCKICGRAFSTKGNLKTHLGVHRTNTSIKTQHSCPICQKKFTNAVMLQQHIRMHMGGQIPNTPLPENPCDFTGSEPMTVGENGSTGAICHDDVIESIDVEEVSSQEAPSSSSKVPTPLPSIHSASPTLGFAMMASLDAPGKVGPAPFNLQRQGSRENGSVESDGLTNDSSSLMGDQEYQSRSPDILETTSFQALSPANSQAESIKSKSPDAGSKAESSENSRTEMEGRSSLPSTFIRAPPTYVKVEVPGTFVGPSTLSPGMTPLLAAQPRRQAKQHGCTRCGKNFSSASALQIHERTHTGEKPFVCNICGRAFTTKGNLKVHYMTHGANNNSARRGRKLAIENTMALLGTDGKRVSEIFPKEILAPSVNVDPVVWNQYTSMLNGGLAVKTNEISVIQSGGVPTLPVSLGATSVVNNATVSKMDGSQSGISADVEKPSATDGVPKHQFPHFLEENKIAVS"}
{"Strand": "GAAGTTCC", "E-score": -0.303}
{"Strand": "CGATTGCG", "E-score": -0.15}
{"Strand": "CAGGACGC", "E-score": -0.158}
{"Strand": "CAGAATTA", "E-score": 0.167}
{"Strand": "ACATGTTC", "E-score": 0.119}
{"Strand": "AACACGGA", "E-score": -0.0169}
{"Strand": "GCAAGGAC", "E-score": -0.27}
{"Strand": "ATGTCGCA", "E-score": 0.00123}
{"Strand": "CTCGTTAC", "E-score": -0.00265}
{"Strand": "AAGTGGCA", "E-score": -0.0608}
{"Strand": "GACCCCAA", "E-score": -0.187}
{"Strand": "GACTGGGC", "E-score": -0.187}
{"Strand": "AACATAGA", "E-score": 0.097}
{"Strand": "GGGCTCAC", "E-score": -0.43}
{"Strand": "CGCTAGAG", "E-score": -0.207}
{"Strand": "CTTCGATA", "E-score": 0.221}
{"Strand": "AGGACGAG", "E-score": -0.132}
{"data": "Sample 3", "target": "RING finger protein unkempt homolog, zinc fingers 1-6, GST-SBP tag (UNK, Homo sapiens, UniProt Q9C0B0, residues 30-357)", "technique": "RNA Bind-n-Seq", "molecule type": "RNA", "matrix": "in vitro", "tested at": "not given", "notes": "RNA with constant flanks, human and mouse sites, ends assumed", "baseline": "input RNA pool", "direction": "higher = stronger binding", "sequence of UniProt Q9C0B0 (30-357, looked up)": "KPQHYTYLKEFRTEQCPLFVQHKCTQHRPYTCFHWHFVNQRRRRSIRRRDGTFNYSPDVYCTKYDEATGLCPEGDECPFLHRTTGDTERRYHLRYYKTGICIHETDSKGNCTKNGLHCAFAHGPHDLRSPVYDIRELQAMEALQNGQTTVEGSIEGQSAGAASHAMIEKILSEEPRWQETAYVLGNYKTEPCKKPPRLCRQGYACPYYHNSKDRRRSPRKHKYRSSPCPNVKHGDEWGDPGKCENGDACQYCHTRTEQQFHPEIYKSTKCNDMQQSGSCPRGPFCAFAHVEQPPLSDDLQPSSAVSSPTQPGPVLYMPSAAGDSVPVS"}
{"Strand": "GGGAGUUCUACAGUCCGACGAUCUUCGGGAAAAUAACCAGUUAAACCAGCUACUCAAGGCUGCUCACCAUACGGCUCUAACAGAUUAGGGGCUAAAACGAUUACUGACUUUCCUUGAGUAGUUUUUAUCUGAAAUCAAUUAAACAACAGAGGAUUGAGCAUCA", "bound/input enrichment": "0.497 ratio"}
{"Strand": "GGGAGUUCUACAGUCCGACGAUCCUAAAAUCAUACAUUGAUAAAUACAUUUUGGAAAAUGCCAGUAUUAAAGUAUUAUUUUAUUACAGUUCAGUGGAAAAUGUUAACAAUUGCAUUUACUCUUGACUCAUAUUGUUAAAGCUCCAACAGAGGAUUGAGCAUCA", "bound/input enrichment": "0.265 ratio"}
{"Strand": "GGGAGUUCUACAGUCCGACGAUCACUGGAACCUGUGACAAAGUCAAUAACAUCCACCCAGCUGUUCAUACAAAGACUGAUAACUCUGUUGCCUCUUCACCAUCUUCAGCCAUUUCAACAGCAACACCUUCUCCAAAAUCCACUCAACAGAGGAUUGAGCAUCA", "bound/input enrichment": "0.266 ratio"}
{"Strand": "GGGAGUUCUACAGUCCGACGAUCGAAGCCUGCGUAACUUUCUCCCUUGAUCCGGGAGUCUUUCCACUGGAUUCACAAUGACAUCCUUUCAAGAAGUCCCAUUGCAGACUUCCAACUUUGCCCAUGUCAUCUUUCAAAAUGUGGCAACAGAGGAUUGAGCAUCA", "bound/input enrichment": "0.112 ratio"}
{"Strand": "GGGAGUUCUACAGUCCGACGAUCGAAGAAGAUGAACACUUCGAUGACACAGUGGUUUGUCUUGAUACUUAUAAUUGUGAUCUACAUUUUAAAAUAUCAAGAGAUCGUCUCAGUGCUUCUUCCCUUACAAUGGAGAGUUUUGCUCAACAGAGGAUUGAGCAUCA", "bound/input enrichment": "0.307 ratio"}
{"Strand": "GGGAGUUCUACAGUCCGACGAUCUGUGCAUAUGAUGCUUGAGAUGGUUUUUGCAAAAGCAGAAAUCGCUGCAAGGUAAUCACAAUAGAUAAAAGUGGUAUUUUAAACCUUUGAAAUAAAUGGAUGUAACUGUACCUUGGUACACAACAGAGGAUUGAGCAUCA", "bound/input enrichment": "0.576 ratio"}
{"Strand": "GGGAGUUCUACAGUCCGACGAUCGUGUGAGCCUGCGCAGGACAGUUUCAGGUGGUUUUAAAGAACACGUGGAAAUCCCUUGAAUUUAGGACCUGGUUAACCAGAAAGAUAAGACUGUUCUUAACGACCUAGAUGAUUCUGUUCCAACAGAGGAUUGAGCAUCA", "bound/input enrichment": "0.26 ratio"}
{"Strand": "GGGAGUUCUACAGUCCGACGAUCGAUUUUAAUUGGCAGGGGAUAAUGGUAGCUUUCAAAUCAUUGGAAGGGGAAAAGGAUGUCUUAGGAUUAUUUUCUUUCUUGUAGUAGUUGAGACAGAGCUCUUAUUUACUGUAAUGCUAACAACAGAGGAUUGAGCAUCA", "bound/input enrichment": "0.419 ratio"}
{"Strand": "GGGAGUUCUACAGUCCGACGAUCAAUCUUCGCCGAUGUACUUACCUUGUAUUGGACGAAGCUGACAGAAUGCUUGAUAUGGGGUUUGAACCCCAGAUCCGUAAAAUUGUUGACCAAAUCAGGCCUGAUAGGCAGACACUGAUGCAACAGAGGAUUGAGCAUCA", "bound/input enrichment": "0.128 ratio"}
{"Strand": "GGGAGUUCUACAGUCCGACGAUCAAAAGGGAUUUGGGCCACUACCCAGCUAUUAUUGUUCAGUCAGUUGUGUCUCCUACCCACAUAGACAUGUGUGUGCAUAUGUACAACACACACACACACACACACACACACACACACACACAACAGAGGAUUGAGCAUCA", "bound/input enrichment": "1.22 ratio"}
{"Strand": "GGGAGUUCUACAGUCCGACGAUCCUCGAUGAGUUAGAAGAUUUUACUGACAAUUUGGAGCUAGAUGAAGAAGGAGCAGGCGGGUUCACGGCUAAAGCAAUCGUUCAGAGAGACAGAGUGGAUGAAGAGGCCUUGAAUUUCCCCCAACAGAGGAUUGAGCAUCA", "bound/input enrichment": "0.457 ratio"}
{"data": "Sample 4", "target": "Interferon regulatory factor 3, full length, phosphomimetic (IRF3, Homo sapiens, UniProt Q14653, residues 1-427, S386D/S396D/S398D/S402D/T404D/S405D)", "technique": "protein-binding microarray", "molecule type": "double-stranded DNA, one strand shown", "matrix": "in vitro", "tested at": "2540 nM top", "notes": "60-bp whole probe", "added": "salmon DNA 0.4 mg/ml", "baseline": "random background probes", "direction": "higher = stronger binding", "constant ends, left off below": "GCCTAGCAC … GTCTTGATTCGCTTGACGCTGCTG", "Construct (chain)": "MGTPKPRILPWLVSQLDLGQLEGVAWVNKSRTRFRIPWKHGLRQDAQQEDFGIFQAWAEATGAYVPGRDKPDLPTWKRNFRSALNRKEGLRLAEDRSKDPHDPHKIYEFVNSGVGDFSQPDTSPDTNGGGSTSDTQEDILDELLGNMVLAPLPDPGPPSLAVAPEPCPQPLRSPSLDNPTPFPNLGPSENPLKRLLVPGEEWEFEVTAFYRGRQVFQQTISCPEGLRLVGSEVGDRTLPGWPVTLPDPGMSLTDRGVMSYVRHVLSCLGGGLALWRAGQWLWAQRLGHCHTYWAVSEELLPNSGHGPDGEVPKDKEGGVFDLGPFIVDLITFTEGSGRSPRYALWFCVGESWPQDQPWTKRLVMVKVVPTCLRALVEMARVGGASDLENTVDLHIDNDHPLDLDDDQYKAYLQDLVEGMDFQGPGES"}
{"Strand": "GACGAACTGGGGACTGGATACGTGCTA", "fitted relative affinity [z-score]": -0.458}
{"Strand": "TTAGGTATCGGACTAGGTTAGTGCTAG", "fitted relative affinity [z-score]": 1.81}
{"Strand": "GACGGTATCCTTCTGCTGACGTGCTAG", "fitted relative affinity [z-score]": 4.38}
{"Strand": "TTAGGTTTCGGGTATCGGTGAGTGCTA", "fitted relative affinity [z-score]": 4.28}
{"Strand": "TGCAACATCCCAATGGCCCTGTGCTAG", "fitted relative affinity [z-score]": -0.05}
{"Strand": "TTAGGGATCGGGTATCGGTTAGTGCTA", "fitted relative affinity [z-score]": 0.777}
{"Strand": "TCAAATTTCCCTCTCCCACTGTGCTAG", "fitted relative affinity [z-score]": 4.28}
{"Strand": "AACGGACTGGGACTGGGGACGTGCTAG", "fitted relative affinity [z-score]": -0.823}
{"Strand": "GACGGTCTCGGTCTCAGGACGTGCTAG", "fitted relative affinity [z-score]": 1.27}
{"Strand": "GACGATATAAGACTGGAGACGTGCTAG", "fitted relative affinity [z-score]": -0.0248}
{"Strand": "GACGGTTTCCACTTTCGGGACGTGCTA", "fitted relative affinity [z-score]": 5.16}
{"Strand": "TCATCGTAAGCAAAAATACTGTGCTAG", "fitted relative affinity [z-score]": -0.146}
{"Strand": "TTAGATATCAGACTGGAGTAGTGCTAG", "fitted relative affinity [z-score]": 0.113}
{"Strand": "GACGGACAGGGGTTTCGGGACGTGCTA", "fitted relative affinity [z-score]": 0.669}
{"Strand": "AGATTCCTCTCACCTCGGCCTGTGCTA", "fitted relative affinity [z-score]": 1.65}
{"Strand": "GATGGACTGCTTTTCCTGACGTGCTAG", "fitted relative affinity [z-score]": -0.341}
{"Strand": "TTAGGTTCCGACTATCGGTTAGTGCTA", "fitted relative affinity [z-score]": 3.19}
{"Strand": "TACTGTCTGTTTCCTCTTTCTGTGCTA", "fitted relative affinity [z-score]": 3.41}
{"Strand": "GACGGACTGGGTATCGAGACGTGCTAG", "fitted relative affinity [z-score]": -0.486}
{"Strand": "TCAACAATGGCTTTGCCACTGTGCTAG", "fitted relative affinity [z-score]": -0.856}
{"Strand": "TTAGGACTGGACACTCGGTTAGTGCTA", "fitted relative affinity [z-score]": -0.825}
{"Strand": "GACGGGCTCGGTCTCGGGACGTGCTAG", "fitted relative affinity [z-score]": -0.402}
{"Strand": "GACGGTTTCAGTCTCGGGACGTGCTAG", "fitted relative affinity [z-score]": 5.4}
{"Strand": "TTATGTTTCGGACTGGGTTAGTGCTAG", "fitted relative affinity [z-score]": 3.23}
{"Strand": "TTAGGTTCCGGTTTCCGTTAGTGCTAG", "fitted relative affinity [z-score]": 6.88}
{"note": "For quick reference, copied from above (sample 2):"}
{"Strand": "AACACGGA", "E-score": -0.0169}
{"Strand": "GCAAGGAC", "E-score": -0.27}
{"Strand": "ATGTCGCA", "E-score": 0.00123}
{"Strand": "CTCGTTAC", "E-score": -0.00265}
{"Strand": "AAGTGGCA", "E-score": -0.0608}
{"Strand": "GACCCCAA", "E-score": -0.187}
{"Strand": "GACTGGGC", "E-score": -0.187}
{"Strand": "AACATAGA", "E-score": 0.097}
{"Strand": "GGGCTCAC", "E-score": -0.43}
{"Strand": "CGCTAGAG", "E-score": -0.207}
